Results from different studies.
Compare with care: the assays were run in different laboratories. Numbers after ± are the reported error. Values after ≈ are worked out from the molar mass of the structure shown.
rep main protease: Replicase polyprotein 1ab, main protease (rep, Severe acute respiratory syndrome coronavirus 2, UniProt P0DTD1)
Sequence of UniProt Q12809 (whole entry, looked up): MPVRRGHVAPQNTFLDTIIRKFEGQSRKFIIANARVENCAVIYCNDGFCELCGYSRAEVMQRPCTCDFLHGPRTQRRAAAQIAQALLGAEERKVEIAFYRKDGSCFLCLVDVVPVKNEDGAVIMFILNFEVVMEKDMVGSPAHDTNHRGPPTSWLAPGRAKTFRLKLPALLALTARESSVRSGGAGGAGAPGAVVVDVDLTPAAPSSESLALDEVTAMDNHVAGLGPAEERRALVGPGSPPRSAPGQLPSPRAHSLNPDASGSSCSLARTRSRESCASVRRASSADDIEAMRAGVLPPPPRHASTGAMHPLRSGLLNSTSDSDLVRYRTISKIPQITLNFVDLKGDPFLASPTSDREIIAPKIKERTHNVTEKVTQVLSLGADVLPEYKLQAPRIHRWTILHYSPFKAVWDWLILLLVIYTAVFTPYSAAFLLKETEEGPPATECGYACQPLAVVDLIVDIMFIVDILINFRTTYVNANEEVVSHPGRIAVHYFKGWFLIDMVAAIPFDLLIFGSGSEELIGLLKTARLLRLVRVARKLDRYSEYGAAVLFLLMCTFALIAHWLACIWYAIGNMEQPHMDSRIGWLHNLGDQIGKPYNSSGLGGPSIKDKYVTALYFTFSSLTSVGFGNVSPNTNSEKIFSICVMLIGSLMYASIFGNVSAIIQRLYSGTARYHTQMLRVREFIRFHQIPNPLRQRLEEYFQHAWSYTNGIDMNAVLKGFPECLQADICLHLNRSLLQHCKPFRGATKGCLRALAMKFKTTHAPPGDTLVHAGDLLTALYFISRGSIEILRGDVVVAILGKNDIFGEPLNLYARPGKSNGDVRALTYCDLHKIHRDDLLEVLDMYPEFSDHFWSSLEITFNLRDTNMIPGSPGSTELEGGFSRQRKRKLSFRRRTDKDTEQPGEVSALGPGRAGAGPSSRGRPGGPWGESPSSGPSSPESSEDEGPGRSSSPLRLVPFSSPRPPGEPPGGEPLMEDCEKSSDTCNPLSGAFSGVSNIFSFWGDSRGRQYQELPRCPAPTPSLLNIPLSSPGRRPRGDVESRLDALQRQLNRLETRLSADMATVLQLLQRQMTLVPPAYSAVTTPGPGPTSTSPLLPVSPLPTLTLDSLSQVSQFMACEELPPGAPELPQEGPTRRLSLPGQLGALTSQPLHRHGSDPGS

CCc1c(C(=O)C(N)=O)c2c(OCC(=O)O)cccc2n1Cc1ccccc1 — viability difference (Daboia russelii; C2C12; 100 µM, together with: Daboia russelii venom GA; relative to: venom alone): -36%
Cn1cc(CN2CCCC(COc3ccccc3C(=O)N3CCCCC3)C2)c2ccccc21 (centres unmarked) — maximum response (SARS-CoV-2; cytopathic effect; USA_WA1/2020; retest, 8-point, duplicates): 11.9%
O=C(Nc1ncc(Cc2cccc3ccccc23)s1)c1ccccc1 — MIC (Histoplasma capsulatum; microbial growth): > 20 µM
C[C@@]12C[C@@]3(O)O[C@@H](O1)[C@]1(COC(=O)c4ccc(O)cc4)[C@H]3C[C@@]12O[C@@H]1O[C@H](COC(=O)c2ccccc2)[C@@H](O)[C@H](O)[C@H]1O — inhibition (rep main protease; reporter gene (mKate2), inhibitor; 20 µM): -0.136%
COc1cc2c(cc1OC)C(c1cccc(Cl)c1)=NN=C(C)C2 — EC50 (SARS-CoV-2; viral replication, high-content imaging screen; cell-based): > 100 µM
COc1ccc(-c2cn3c(n2)sc2cc(C(=O)NCCCN4CCCCCC4)ccc23)cc1 — maximum response (SARS-CoV-2; cytopathic effect; USA_WA1/2020; round 2, 5-point): 68.5%
NC(=O)c1ncn([C@@H]2O[C@H](CO)[C@@H](O)[C@H]2O)n1 — EC90 (SARS-CoV; virus yield; Urbani; 48 h): 454 ± 236 µM
Cc1[nH]c2c(c1C(=O)NC(C)c1cnn(-c3ccccc3)c1C)C(=O)CCC2 (centres unmarked) — remaining activity (Lassa mammarenavirus; viral replication; Huh-7; 10 µM, 72 h): 55%
CC(C)=CCc1c(O)ccc(C(=O)/C=C/c2ccc(O)cc2)c1O — mean inhibition (SARS-CoV-2; cytopathic effect; Vero E6; 3.125 µM, replicate run): 0%
CC[C@H](C)[C@H](NC(=O)[C@H](CC(C)C)NC(=O)[C@H](Cc1c[nH]c2ccccc12)NC(=O)[C@H](CCC(N)=O)NC(=O)[C@@H](NC(=O)[C@H](Cc1ccccc1)NC(=O)[C@H](C)NC(=O)[C@H](CCCCNC(=O)COCCOCCNC(=O)COCCOCCNC(=O)CC[C@H](NC(=O)CCCCCCCCCCCCCCCCCCC(=O)O)C(=O)O)NC(=O)[C@H](CCC(N)=O)NC(=O)[C@H](C)NC(=O)[C@@H](NC(=O)[C@H](CCCCN)NC(=O)[C@H](CC(=O)O)NC(=O)[C@H](CC(C)C)NC(=O)C(C)(C)NC(=O)[C@@H](NC(=O)[C@H](CO)NC(=O)[C@H](Cc1ccc(O)cc1)NC(=O)[C@H](CC(=O)O)NC(=O)[C@H](CO)NC(=O)[C@@H](NC(=O)[C@H](Cc1ccccc1)NC(=O)[C@@H](NC(=O)CNC(=O)[C@H](CCC(=O)O)NC(=O)C(C)(C)NC(=O)[C@@H](N)Cc1ccc(O)cc1)[C@@H](C)O)[C@@H](C)O)[C@@H](C)CC)[C@@H](C)CC)C(C)C)C(=O)N[C@@H](C)C(=O)NCC(=O)NCC(=O)N1CCC[C@H]1C(=O)N[C@@H](CO)C(=O)N[C@@H](CO)C(=O)NCC(=O)N[C@@H](C)C(=O)N1CCC[C@H]1C(=O)N1CCC[C@H]1C(=O)N1CCC[C@H]1C(=O)N[C@@H](CO)C(N)=O — total ALT (healthy human subjects, serum; 1.5 mg multiple ascending, day 29): 28.3 ± 10 U/L
O=C(NC1CC(=O)N(Cc2cccc(F)c2)C1)c1n[nH]c2c1CCCC2 (centres unmarked) — remaining activity (Lassa mammarenavirus; viral replication; Huh-7; 10 µM, 72 h): 66%
CN1[C@@H]2CC[C@H]1C[C@@H](OC(c1ccccc1)c1ccc(Cl)cc1)C2 (some centres unmarked) — EC50 (SARS-CoV-2; viral replication, high-content imaging screen; cell-based): > 100 µM
Cn1cnc(Cn2c(=O)[nH]/c(=N\c3cc4cn(C)nc4cc3Cl)n(Cc3cc(F)c(F)cc3F)c2=O)n1 — tolerability (measured: adverse events; human, renal impairment and normal; oral, 375 mg single): not toxic
c1ccc2c(c1)Sc1ccccc1N2CC1CN2CCC1CC2 (centres unmarked) — EC50 (SARS-CoV-2; viral replication, GFP plate reader screen; cell-based): 7.76 µM
CN(C)CCOC(C)(c1ccccc1)c1ccc(Cl)cc1 (centres unmarked) — selectivity index (Marburg virus; pseudovirus entry; A549; relative to: CC50 over IC50): 9
COc1ccccc1-c1cccc(CN2CCCC(C(=O)NCCc3ccc(F)cc3)C2)c1 (centres unmarked) — efficacy (SARS-CoV-2; cytopathic effect; USA_WA1/2020; round 1, 5-point): 79.9%
Cn1cnc(Cn2c(=O)[nH]/c(=N\c3cc4cn(C)nc4cc3Cl)n(Cc3cc(F)c(F)cc3F)c2=O)n1 — Cmax (healthy Japanese adults, plasma; oral, 125 mg, day 5, fasted, with midazolam): 21900 ng/mL
O=C(CC(c1ccccc1)c1ccc(F)cc1)NCc1ccno1 (centres unmarked) — remaining activity (Lassa mammarenavirus; viral replication; Huh-7; 10 µM, 72 h): 45%
O=c1ccn([C@@H]2O[C@](F)(CO)[C@@H](O)[C@H]2O)c(=O)[nH]1 — viral replication (Sin Nombre virus; concentration not given): inhibited
O=C(O)CCc1nc(-c2ccccc2)c(-c2ccccc2)o1 — EC50 (SARS-CoV-2; viral replication, GFP plate reader screen; cell-based): 11.8 µM
CC(C)CN(C[C@@H](O)[C@H](Cc1ccccc1)NC(=O)O[C@H]1CCOC1)S(=O)(=O)c1ccc(N)cc1 — inhibition (rep main protease; reporter gene (mKate2), inhibitor; 20 µM): -0.0641%
O=C(Nc1ccc(N2CCN(C(=O)c3cnccn3)CC2)nc1)c1cccc([N+](=O)[O-])c1 — IC90 (Mycobacterium tuberculosis; bacterial growth; H37Ra-lux; 168 h): > 64 µM
Cc1ccc(-c2cccc(CN3CCCC(c4nc5ccc(C)cc5c(=O)[nH]4)C3)c2)c(C)c1 (centres unmarked) — efficacy (SARS-CoV-2; cytopathic effect; USA_WA1/2020; round 2, 5-point): 111%
COCc1c(-c2nc(CCc3ccccc3)n[nH]2)noc1C — remaining activity (Lassa mammarenavirus; viral replication; Huh-7; 10 µM, 72 h): 37%
O=C(Nc1ncc(CC2CCCCC2)s1)c1ccccc1 — MIC (Histoplasma capsulatum; microbial growth): 10 µM (≈ 3 µg/mL)
O=C1NCCCOc2cccc(c2)C2c3ccc(cc3CCN2C(=O)c2ccc(C(=O)N3CCOCC3)cc2)Oc2ccc(O)c1c2 (centres unmarked) — remaining activity (Lassa mammarenavirus; viral replication; Huh-7; 10 µM, 72 h): 39%
CCCN1CCN(CCCNC(=O)c2cc3c(Cl)nc4ccccc4c3s2)CC1 — AC50 (SARS-CoV-2; cytopathic effect, cell-based CPE; USA_WA1/2020; round 2, 5-point dilution): 3.98 µM
C=C(C[C@@]12C[C@@H](C)C[C@H](O1)[C@H]1O[C@]3(C[C@H]1O2)NC[C@H](C)C[C@@H]3C)[C@H]1O[C@@](O)([C@@H](O)[C@@H]2C[C@H]3O[C@@]4(CC[C@]5(CC=C[C@@H](/C=C/CCC(=O)O)O5)O4)[C@H](C)C[C@H]3O2)[C@H](C)C[C@@H]1C — IC50 (Voltage-gated inwardly rectifying potassium channel KCNH2 (KCNH2, Homo sapiens, UniProt Q12809); ion current, inhibitor, thallium flux; HEK293 expressing hERG; 15 min): 4.2 µM
Cc1cc(C)c(CNC(=O)c2cc(Cl)c3c(c2C)O[C@@](C)([C@H]2CC[C@H](N(C)C)CC2)O3)c(=O)[nH]1 — COVID-19 pneumonia incidence (human, relapsed/refractory NHL; concentration not given, treatment-related TEAEs, grade 5): 0%
CNC(=O)[C@@H](NC(=O)[C@H](CC(C)C)[C@H](O)C(=O)NO)C(C)(C)C — viability difference (Daboia russelii; C2C12; 100 µM, together with: Daboia russelii venom MH; relative to: venom alone): -26.1%
Cc1nc2n(n1)CC(=O)N[C@@H](C(C)C)CN(C(=O)CCc1cccnc1)CC(=O)N[C@@H](CC(C)C)c1nc(cs1)C(=O)N[C@H]2Cc1ccccc1 — remaining activity (Lassa mammarenavirus; viral replication; Huh-7; 10 µM, 72 h): 99%
Nc1ncnc2c1ncn2[C@@H]1O[C@@H]2COP(=O)(O)O[C@H]3[C@@H](O)[C@H](n4cnc5c(=O)[nH]cnc54)O[C@@H]3COP(=O)(O)O[C@H]2[C@H]1O — fold enrichment (Chikungunya virus; upregulated Reactome pathway, RNA sequencing, measured: Cell Cycle, Mitotic (R-HSA-69278); HFF-1; relative to: CHIKV-infected untreated): 1.83
CC(Nc1nc(N2CCN(CCN)CC2)nc2ccccc12)c1ccccc1 (centres unmarked) — AC50 (SARS-CoV-2; cytopathic effect, cell-based CPE; USA_WA1/2020; round 2, 5-point dilution): 5.62 µM
Nc1ncnc2c([C@@H]3N[C@H](CO)[C@@H](O)[C@H]3O)c[nH]c12 — inhibition (Marburg marburgvirus; viral RNA in cell lysate; HeLa, Musoke; 25 µM): 97.3%
CC(=O)c1ccc2c(c1)N(CCCN(C)C)c1ccccc1S2 — EC50 (SARS-CoV-2; viral replication, high-content imaging screen; cell-based): > 100 µM
CC[C@H](C)[C@H](NC(=O)[C@H](CC(C)C)NC(=O)[C@H](CO)NC(=O)[C@H](Cc1c[nH]cn1)NC(=O)[C@@H](NC(=O)[C@H](CC(C)C)NC(=O)[C@H](CO)NC(=O)[C@@H](NC(=O)[C@H](Cc1ccc(O)cc1)NC(=O)[C@H](CC(N)=O)NC(=O)[C@H](CC(N)=O)NC(=O)[C@@H](NC(=O)[C@H](CCC(=O)O)NC(=O)[C@H](CCCNC(=N)N)NC(=O)[C@H](CC(=O)O)NC(=O)[C@H](Cc1c[nH]c2ccccc12)NC(=O)[C@H](CCC(=O)O)NC(=O)[C@H](CCSC)NC(=O)[C@H](Cc1c[nH]c2ccccc12)NC(C)=O)[C@@H](C)CC)[C@@H](C)O)[C@@H](C)CC)C(=O)N[C@@H](CCC(=O)O)C(=O)N[C@@H](CCC(=O)O)C(=O)N[C@@H](CO)C(=O)N[C@@H](CCC(N)=O)C(=O)N[C@@H](CC(N)=O)C(=O)N[C@@H](CCC(N)=O)C(=O)N[C@@H](CCC(N)=O)C(=O)N[C@@H](CCC(=O)O)C(=O)N[C@@H](CCCCN)C(=O)N[C@@H](CC(N)=O)C(=O)N[C@@H](CCC(=O)O)C(=O)N[C@@H](CCC(N)=O)C(=O)N[C@@H](CCC(=O)O)C(=O)N[C@@H](CC(C)C)C(=O)N[C@@H](CC(C)C)C(=O)NCC(=O)N[C@@H](CO)C(=O)NCC(=O)N[C@@H](CSCC(=O)O[C@H]1CC[C@@]2(C)C(=CC[C@H]3[C@@H]4CC[C@H]([C@H](C)CCCC(C)(C)O)[C@@]4(C)CC[C@@H]32)C1)C(N)=O — Kd (monolayer insertion, Langmuir surface pressure; POPC monolayer; 25 °C, initial pressure 20.5 mN/m): 101 ± 8.2 nM
O=C(Nc1ccccc1)OCC(CN1CCCCC1)OC(=O)Nc1ccccc1 (centres unmarked) — EC50 (SARS-CoV-2; viral replication, GFP plate reader screen; cell-based): 15.1 µM
Cn1c(=O)ccc2ccc(F)c(CCNC[C@H]3CN(c4cnc5c(n4)NC(=O)CO5)C(=O)O3)c21 — MIC50 (Francisella tularensis; microbial growth): < 0.015 µg/mL
CC(C)(C)NC(=O)[C@@H]1C[C@@H]2CCCC[C@@H]2CN1C[C@@H](O)[C@H](Cc1ccccc1)NC(=O)[C@H](CC(N)=O)NC(=O)c1ccc2ccccc2n1 — EC50 (SARS-CoV-2; viral replication, high-content imaging screen; cell-based): > 100 µM
CCc1nccn1Cc1nc(-c2cc(C)c(OC)cc2C)oc1C — remaining activity (Lassa mammarenavirus; viral replication; Huh-7; 10 µM, 72 h): 1%
CCOc1ccccc1CNCc1cccn1-c1nnc(N2CCN(c3ccccc3)CC2)s1 — maximum response (SARS-CoV-2; cytopathic effect; USA_WA1/2020; round 1, 5-point): 40.2%
OCCN1CCN(CC/C=C2/c3ccccc3Sc3ccc(Cl)cc32)CC1 — EC50 (SARS-CoV-2; viral replication, high-content imaging screen; BetaCov/Belgium/GHB-03021/2020; cell-based): > 100 µM
CC1CCCCN1CCCNC(=O)c1cc(Sc2cccc(Cl)c2)nc2ccccc12 (centres unmarked) — efficacy (SARS-CoV-2; cytopathic effect, cell-based CPE; USA_WA1/2020; round 2, 5-point dilution): 109%
COP(=O)(OC)OC=C(Cl)Cl — Ki (rat CYP2C; tolbutamide hydroxylation, non-competitive inhibitor; rat Sprague-Dawley, liver microsomes; 30 min, pH 7.4, together with: tolbutamide 1 to 10 mM): > 5 mM
COCC1(C(=O)N2CC(=O)N[C@@H](CC(C)C)c3nc(cs3)C(=O)N[C@@H](Cc3ccccc3)c3nc(C)nn3CC(=O)N[C@@H](C(C)C)C2)CCC1 — remaining activity (Lassa mammarenavirus; viral replication; Huh-7; 10 µM, 72 h): 92%
O=C(/C=C/c1ccc(O)c(O)c1/C=C/c1ccc(O)c(O)c1)O[C@H](Cc1ccc(O)c(O)c1)C(=O)O — inhibition (Severe acute respiratory syndrome coronavirus 2; cytopathic effect; Vero C1008; 3.125 µM): 0%
O=C(N1CCC2(CC1)CC(Nc1ccccc1)CCO2)C1(c2ccccc2)CCCC1 (centres unmarked) — EC50 (Venezuelan equine encephalitis virus; viral replication): 15.8 µM
